{"data": "Published values from different studies", "T1": "itself; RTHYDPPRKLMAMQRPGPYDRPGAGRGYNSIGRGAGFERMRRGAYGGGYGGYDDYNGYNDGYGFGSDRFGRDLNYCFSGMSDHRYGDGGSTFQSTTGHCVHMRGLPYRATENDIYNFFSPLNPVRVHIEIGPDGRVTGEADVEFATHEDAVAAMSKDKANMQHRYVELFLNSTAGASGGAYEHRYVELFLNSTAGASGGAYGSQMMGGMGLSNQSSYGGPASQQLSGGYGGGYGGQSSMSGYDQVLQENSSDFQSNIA", "T2": "itself; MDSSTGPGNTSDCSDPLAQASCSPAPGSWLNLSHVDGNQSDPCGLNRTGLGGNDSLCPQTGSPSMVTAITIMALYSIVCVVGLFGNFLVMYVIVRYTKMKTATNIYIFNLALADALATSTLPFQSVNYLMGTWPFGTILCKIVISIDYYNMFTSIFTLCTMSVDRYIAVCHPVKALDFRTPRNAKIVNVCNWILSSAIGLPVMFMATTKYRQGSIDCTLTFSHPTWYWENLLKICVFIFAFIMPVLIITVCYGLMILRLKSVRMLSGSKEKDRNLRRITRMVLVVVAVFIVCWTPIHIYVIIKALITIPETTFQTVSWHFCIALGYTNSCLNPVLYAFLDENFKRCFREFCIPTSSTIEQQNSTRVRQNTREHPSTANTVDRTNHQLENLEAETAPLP", "T3": "itself; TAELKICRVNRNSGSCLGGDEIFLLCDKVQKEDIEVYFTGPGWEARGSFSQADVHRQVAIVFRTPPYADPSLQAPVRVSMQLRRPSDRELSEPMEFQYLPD", "B1": "int K362A (Listeria innocua, UniProt Q928V6); chain MKAAIYIRVSTQEQVENYSIQAQTEKLTALCRSKDWDVYDTFIDGGYSGSNMNRPALNEMLSKLHEIDAVVVYRLDRLSRSQKDTITLIEEYFLKNNVEFVSLSETLDTSSPFGRAMIGILSVFAQLERETIRDRMVMGKIKRIEAGLPLTTAKGRTFGYDVIDTKLYINEEEAKQLRLIYDIFEEEQSITFLQKRLKKLGFKVRTYNRYNNWLTNDLYCGYVSYKDKVHVKGIHEPIISEEQFYRVQEIFSRMGKNPNMNKESASLLNNLVVCSKCGLGFVHRRKDTVSRGKKYHYRYYSCKTYKHTHELEKCGNKIWRADKLEELIIDRVNNYSFASRNIDKEDELDSLNEKLKIEHAKAKRLFDLYINGSYEVSELDSMMNDIDAQINYYEAQIEANEELKKNKKIQENLADLATVDFNSLEFREKQLYLKSLINKIYIDGEQVTIEWL", "B2": "HNRNPH1 192-449 (Homo sapiens, UniProt P31943); chain RTHYDPPRKLMAMQRPGPYDRPGAGRGYNSIGRGAGFERMRRGAYGGGYGGYDDYNGYNDGYGFGSDRFGRDLNYCFSGMSDHRYGDGGSTFQSTTGHCVHMRGLPYRATENDIYNFFSPLNPVRVHIEIGPDGRVTGEADVEFATHEDAVAAMSKDKANMQHRYVELFLNSTAGASGGAYEHRYVELFLNSTAGASGGAYGSQMMGGMGLSNQSSYGGPASQQLSGGYGGGYGGQSSMSGYDQVLQENSSDFQSNIA", "B3": "Oprm1 full length with N-terminal SNAPf (Rattus norvegicus, UniProt P33535); chain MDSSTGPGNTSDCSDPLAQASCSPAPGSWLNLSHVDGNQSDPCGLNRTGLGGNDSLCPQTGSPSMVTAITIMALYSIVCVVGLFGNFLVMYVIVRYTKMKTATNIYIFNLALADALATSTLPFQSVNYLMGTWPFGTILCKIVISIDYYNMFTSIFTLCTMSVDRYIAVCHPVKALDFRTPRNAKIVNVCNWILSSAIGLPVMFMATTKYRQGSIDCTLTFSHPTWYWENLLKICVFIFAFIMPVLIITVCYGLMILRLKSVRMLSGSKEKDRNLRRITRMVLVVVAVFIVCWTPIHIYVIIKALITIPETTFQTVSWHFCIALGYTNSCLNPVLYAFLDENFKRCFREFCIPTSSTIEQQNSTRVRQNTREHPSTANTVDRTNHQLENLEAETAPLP", "B4": "RELA dimerization domain; chain TAELKICRVNRNSGSCLGGDEIFLLCDKVQKEDIEVYFTGPGWEARGSFSQADVHRQVAIVFRTPPYADPSLQAPVRVSMQLRRPSDRELSEPMEFQYLPD", "note": "Lines come from different studies, so protocols differ. Values joined by “and” are separate records of one study, mostly repeats; a detail may differ."}
{"Substance": "B1 (int K362A)", "partner": "itself", "test": "attB integration by attP", "conditions": "250 nM, 20 min, saturating integrase", "quantity": "integration fraction", "value": "0.12 fraction"}
{"Substance": "LL-37 mature (Homo sapiens)", "partner": "itself", "test": "native MS", "test system": "nanodiscs", "quantity": "molecule per partner", "value": "2 and 6"}
{"Substance": "MAPT R1R3 peptide, acetyl-lysine, three lysines", "partner": "itself", "test": "ThT fluorescence aggregation", "quantity": "t1/2max", "value": "13.4 h"}
{"Substance": "dpo1 D231A/D318A (Saccharolobus solfataricus)", "partner": "itself", "test": "DNA synthesis rate", "conditions": "positive allostery fit", "quantity": "Kd", "value": "543 nM"}
{"Substance": "GCN4 leucine zipper", "partner": "itself", "test": "two-hybrid", "conditions": "late", "quantity": "β-galactosidase activity", "value": "4820 Miller units and 5130 Miller units"}
{"Substance": "B2 (HNRNPH1 192-449)", "partner": "T1, itself", "test": "trapping in hydrogel, hydrogel binding", "conditions": "pH 7.5, 4 °C, NaCl 200 mM", "quantity": "binding", "value": "binds"}
{"Substance": "DUT nuclear isoform (Homo sapiens)", "partner": "itself", "test": "non-reducing SDS-PAGE western blot", "test system": "total cell extracts", "conditions": "18 h, not purified, together with: hydrogen peroxide 0.1-0.5 mM", "how to read": "relative to: untreated cells, higher = more dimer", "quantity": "dimer formation", "value": "4 fold"}
{"Substance": "B3", "partner": "T2, itself", "test": "single-molecule colocalisation imaging", "test system": "CHO-K1", "conditions": "37 °C, no agonist, in cells", "quantity": "homodimer lifetime", "value": "122 ms"}
{"Substance": "MAPT R2R3 peptide, acetyl-lysine, second and third", "partner": "itself", "test": "self-assembly into fibrils, ThT fluorescence, negative-stain TEM", "conditions": "500 µM, pH 7.4, acetylated peptide, TFA-disaggregated", "quantity": "t1/2max of aggregation", "value": "43.2 h"}
{"Substance": "B4 (RELA dimerization domain)", "partner": "T3, itself", "test": "AUC", "quantity": "Kd", "value": "800 nM"}
{"Substance": "MAPT R1R3 peptide, acetyl-lysine, second and third", "partner": "itself", "test": "self-assembly into fibrils, ThT fluorescence, negative-stain TEM", "conditions": "500 µM, pH 7.4, acetylated peptide, TFA-disaggregated", "quantity": "t1/2max of aggregation", "value": "47.5 h"}
{"Substance": "FUS RNA-binding domain", "partner": "itself", "test": "nanoparticle tracking analysis", "conditions": "1 µM", "how to read": "relative to: PLD of FUS, higher = greater increase", "quantity": "cluster abundance increase", "value": "> 10 fold"}
{"note": "For quick reference, copied from above:"}
{"Substance": "DUT nuclear isoform (Homo sapiens)", "partner": "itself", "test": "non-reducing SDS-PAGE western blot", "test system": "total cell extracts", "conditions": "18 h, not purified, together with: hydrogen peroxide 0.1-0.5 mM", "how to read": "relative to: untreated cells, higher = more dimer", "quantity": "dimer formation", "value": "4 fold"}
